Published values of several laboratories.
Parts stem from different laboratories: compare values within a part only. Several values in a cell are separate wells, animals, samples, runs or records.
Sequence of UniProt Q6XUX3 (whole entry, looked up): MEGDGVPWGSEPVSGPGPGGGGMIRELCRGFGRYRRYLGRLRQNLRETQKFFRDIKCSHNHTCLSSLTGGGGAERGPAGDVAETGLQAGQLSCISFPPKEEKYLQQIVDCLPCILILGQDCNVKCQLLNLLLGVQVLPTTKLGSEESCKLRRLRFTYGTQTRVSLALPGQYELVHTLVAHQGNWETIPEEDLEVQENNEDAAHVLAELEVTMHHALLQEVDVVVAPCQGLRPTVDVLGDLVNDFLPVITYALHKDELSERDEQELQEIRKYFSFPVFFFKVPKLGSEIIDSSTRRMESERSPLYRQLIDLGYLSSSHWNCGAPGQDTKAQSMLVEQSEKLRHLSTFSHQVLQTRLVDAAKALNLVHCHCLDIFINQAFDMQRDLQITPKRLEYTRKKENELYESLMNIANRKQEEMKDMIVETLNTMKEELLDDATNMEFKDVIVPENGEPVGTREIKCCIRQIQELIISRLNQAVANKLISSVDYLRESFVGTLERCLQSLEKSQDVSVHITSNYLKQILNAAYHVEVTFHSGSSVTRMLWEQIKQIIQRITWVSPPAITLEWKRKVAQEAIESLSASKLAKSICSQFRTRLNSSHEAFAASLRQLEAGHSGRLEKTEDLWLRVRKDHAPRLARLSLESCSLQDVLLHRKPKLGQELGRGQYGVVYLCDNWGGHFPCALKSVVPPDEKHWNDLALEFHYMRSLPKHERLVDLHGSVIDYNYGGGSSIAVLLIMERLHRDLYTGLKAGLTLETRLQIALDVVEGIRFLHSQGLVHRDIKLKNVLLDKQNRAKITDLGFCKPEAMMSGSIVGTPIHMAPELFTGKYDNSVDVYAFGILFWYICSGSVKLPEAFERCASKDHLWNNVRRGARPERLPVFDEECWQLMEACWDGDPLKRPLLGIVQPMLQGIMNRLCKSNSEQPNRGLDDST
Sequence of UniProt Q9NR20 (whole entry, looked up): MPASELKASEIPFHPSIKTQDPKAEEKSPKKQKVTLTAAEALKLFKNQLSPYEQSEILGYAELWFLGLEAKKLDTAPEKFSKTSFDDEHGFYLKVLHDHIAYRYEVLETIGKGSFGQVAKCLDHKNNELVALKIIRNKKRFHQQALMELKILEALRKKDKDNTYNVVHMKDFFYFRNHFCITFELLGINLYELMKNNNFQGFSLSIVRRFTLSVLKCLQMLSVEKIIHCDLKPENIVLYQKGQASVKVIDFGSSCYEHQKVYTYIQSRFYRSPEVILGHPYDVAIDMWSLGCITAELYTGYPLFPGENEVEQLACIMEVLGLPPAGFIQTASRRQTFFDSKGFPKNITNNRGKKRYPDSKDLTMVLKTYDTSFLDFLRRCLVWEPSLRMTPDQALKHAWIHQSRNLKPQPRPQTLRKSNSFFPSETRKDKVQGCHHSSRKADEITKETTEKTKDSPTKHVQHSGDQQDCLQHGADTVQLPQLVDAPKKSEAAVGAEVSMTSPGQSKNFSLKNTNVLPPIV
Sequence of UniProt Q13555 (whole entry, looked up): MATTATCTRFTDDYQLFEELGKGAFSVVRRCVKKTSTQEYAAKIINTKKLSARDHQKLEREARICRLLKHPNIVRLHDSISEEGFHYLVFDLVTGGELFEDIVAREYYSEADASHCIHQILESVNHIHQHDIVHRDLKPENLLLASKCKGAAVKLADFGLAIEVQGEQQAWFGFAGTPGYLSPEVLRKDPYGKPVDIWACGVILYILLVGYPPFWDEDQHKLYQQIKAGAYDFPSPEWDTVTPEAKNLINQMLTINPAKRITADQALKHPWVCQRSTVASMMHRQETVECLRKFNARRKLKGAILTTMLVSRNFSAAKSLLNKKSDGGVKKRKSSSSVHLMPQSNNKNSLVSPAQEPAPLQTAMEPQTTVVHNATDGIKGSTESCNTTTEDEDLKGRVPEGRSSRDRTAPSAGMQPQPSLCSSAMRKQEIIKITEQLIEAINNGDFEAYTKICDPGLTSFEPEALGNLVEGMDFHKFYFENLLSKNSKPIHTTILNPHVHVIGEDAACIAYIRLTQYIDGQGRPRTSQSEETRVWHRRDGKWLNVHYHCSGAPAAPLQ
Sequence of UniProt Q9Y4K4 (whole entry, looked up): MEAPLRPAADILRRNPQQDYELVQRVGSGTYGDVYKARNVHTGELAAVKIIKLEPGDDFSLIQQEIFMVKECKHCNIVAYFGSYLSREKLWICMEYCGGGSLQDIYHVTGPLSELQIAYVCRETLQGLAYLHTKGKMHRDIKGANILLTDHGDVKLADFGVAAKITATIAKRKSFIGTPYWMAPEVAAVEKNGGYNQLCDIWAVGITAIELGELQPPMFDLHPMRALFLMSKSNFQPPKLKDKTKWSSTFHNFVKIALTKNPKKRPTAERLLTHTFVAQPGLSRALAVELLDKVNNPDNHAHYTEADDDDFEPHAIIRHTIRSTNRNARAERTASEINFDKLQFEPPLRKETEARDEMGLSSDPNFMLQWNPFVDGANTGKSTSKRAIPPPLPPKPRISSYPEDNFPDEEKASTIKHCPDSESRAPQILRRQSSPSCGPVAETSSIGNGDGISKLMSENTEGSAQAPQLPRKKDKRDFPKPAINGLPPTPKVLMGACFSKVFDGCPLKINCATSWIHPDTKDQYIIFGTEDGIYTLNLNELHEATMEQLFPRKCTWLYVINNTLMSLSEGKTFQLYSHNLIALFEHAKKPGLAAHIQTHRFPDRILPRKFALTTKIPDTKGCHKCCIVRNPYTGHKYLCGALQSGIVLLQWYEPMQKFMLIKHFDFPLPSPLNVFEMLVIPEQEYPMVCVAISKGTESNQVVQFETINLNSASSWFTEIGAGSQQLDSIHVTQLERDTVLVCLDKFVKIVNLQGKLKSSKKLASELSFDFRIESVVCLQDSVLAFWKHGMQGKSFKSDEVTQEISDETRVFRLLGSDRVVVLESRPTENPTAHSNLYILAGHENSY
Sequence of UniProt P05771 (whole entry, looked up): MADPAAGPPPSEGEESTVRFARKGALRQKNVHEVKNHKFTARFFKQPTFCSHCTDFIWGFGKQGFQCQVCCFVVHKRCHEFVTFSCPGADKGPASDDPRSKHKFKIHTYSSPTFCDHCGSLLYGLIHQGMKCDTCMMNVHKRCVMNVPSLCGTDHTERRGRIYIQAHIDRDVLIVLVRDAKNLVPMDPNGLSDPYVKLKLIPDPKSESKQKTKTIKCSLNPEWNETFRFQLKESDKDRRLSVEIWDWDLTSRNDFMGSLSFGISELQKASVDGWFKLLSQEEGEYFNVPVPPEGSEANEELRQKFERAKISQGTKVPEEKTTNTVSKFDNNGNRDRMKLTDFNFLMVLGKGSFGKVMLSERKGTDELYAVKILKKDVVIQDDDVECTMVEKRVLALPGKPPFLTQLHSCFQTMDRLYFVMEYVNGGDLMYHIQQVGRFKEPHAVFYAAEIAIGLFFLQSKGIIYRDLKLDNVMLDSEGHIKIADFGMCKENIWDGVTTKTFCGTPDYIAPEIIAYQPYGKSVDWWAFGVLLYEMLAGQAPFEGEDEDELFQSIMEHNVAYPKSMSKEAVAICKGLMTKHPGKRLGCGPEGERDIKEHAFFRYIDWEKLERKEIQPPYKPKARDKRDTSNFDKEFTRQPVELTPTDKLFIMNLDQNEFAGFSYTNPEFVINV

Block 1
Structure (SMILES): CC(C)(C)c1cc(C=C(C#N)C#N)cc(Br)c1O
Read-out: enzyme activity
Action: inhibitor
Tested at: 0.5 µM
Endpoint: remaining activity
Dual specificity tyrosine-phosphorylation-regulated kinase 4 (DYRK4, Homo sapiens, UniProt Q9NR20): 98.2%
Dual serine/threonine and tyrosine protein kinase (DSTYK, Homo sapiens, UniProt Q6XUX3): 105%
Mitogen-activated protein kinase kinase kinase kinase 5 (MAP4K5, Homo sapiens, UniProt Q9Y4K4): 95.8%
Protein kinase C alpha type (PRKCA, Homo sapiens, UniProt P17252): 81.4%
Calcium/calmodulin-dependent protein kinase type II subunit gamma (CAMK2G, Homo sapiens, UniProt Q13555); reference: control: 104%
Protein kinase C beta type, isoform beta-II (PRKCB, Homo sapiens, UniProt P05771); reference: control: 129%

Block 2
Target: Calcium/calmodulin-dependent protein kinase type II subunit alpha (CAMK2A, Homo sapiens, UniProt Q9UQM7)
Sequence of UniProt Q9UQM7 (whole entry, looked up): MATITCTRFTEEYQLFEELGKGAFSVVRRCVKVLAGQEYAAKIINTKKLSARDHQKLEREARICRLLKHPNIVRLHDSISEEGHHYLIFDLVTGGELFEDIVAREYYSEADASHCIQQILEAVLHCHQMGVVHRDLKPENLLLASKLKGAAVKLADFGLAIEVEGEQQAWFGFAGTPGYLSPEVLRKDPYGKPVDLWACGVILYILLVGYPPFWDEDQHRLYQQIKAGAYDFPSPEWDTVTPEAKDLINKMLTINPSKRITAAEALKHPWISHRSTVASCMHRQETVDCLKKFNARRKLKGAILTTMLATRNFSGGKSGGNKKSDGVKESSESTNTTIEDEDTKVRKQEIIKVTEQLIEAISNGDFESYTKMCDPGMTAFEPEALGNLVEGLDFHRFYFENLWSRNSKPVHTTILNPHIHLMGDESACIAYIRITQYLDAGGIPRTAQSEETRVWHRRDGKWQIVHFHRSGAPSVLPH
Read-out: enzyme activity
Action: inhibitor
Tested at: 10 µM
Endpoint: inhibition
CC[C@@H](C(N)=O)N1CCCC1=O: -11%
CC(C)=CCC/C(C)=C/CC/C(C)=C/CC[C@]1(C)CCc2cc(O)c(C)c(C)c2O1: -1%
Oc1cc(O)cc(/C=C/c2c(O)cccc2O)c1: 15%
CNc1ccc2oc(C[C@H]3O[C@@]4(CC[C@H]3C)O[C@H]([C@H](C)C(=O)c3ccc[nH]3)[C@H](C)C[C@H]4C)nc2c1C(=O)O: -33%
Cc1c2ccncc2c(C)c2c1[nH]c1ccccc12: -9%
COc1cc2c(cc1OC)[C@@H]1C(=O)c3ccc4c(c3O[C@@H]1CO2)C=CC(C)(C)O4: -18%
C[C@]12CC[C@H]3[C@@H](CC[C@@]45O[C@@H]4C(O)=C(C#N)C[C@]35C)[C@@H]1CC[C@@H]2O: 9%

Block 3
Species: mouse
Matrix: microsomes or S9
Tested at: 2 µM
Time: 0.5 h
Endpoint: remaining compound
Cc1c(C)n(CCN2CCOCC2)c2nc3c(c(N)c12)CCCC3: 19%
CCOc1cc2c(cc1OCC)-n1cccc1C(c1ccccc1OC)NC2 (centres unmarked): 21.1%
COc1cc(Cn2c(=O)[nH]c(O)c(C(C)=O)c2=O)cc(OC)c1: 76.4%
C[C@]12C=CC(=O)C=C1CCC1C2CC[C@]2(C)C(=O)CCC12 (some centres unmarked): 15.5%

Block 4
Structure (SMILES): CC(C)S(=O)(=O)c1cc2c(Nc3ccc4sc(C5CCCC5)nc4c3)ccnc2cc1OCCO
Method: CCK-8
Endpoint: survival
L929 RIPK3-/- reexpressing RIPK3 K51A; 12.5 µM: 67.8% and 66.3% and 69.7% and 61%
L929 RIPK3-/- reexpressing RIPK3 K51A; 50 µM: 13.2% and 12.5% and 10.8%
L929 RIPK3-/- reexpressing RIPK3 K51A; 25 µM: 50.2% and 46.3% and 48.9% and 37.9%
L929 RIPK3-/- reexpressing RIPK3 K51A/R69H; 25 µM, added: zVAD: 64.3% and 65.3% and 66.6% and 55%
L929 RIPK3-/- reexpressing RIPK3 K51A/R69H; 6.25 µM, added: zVAD: 81.4% and 95.7% and 89.4% and 96.5%
L929 RIPK3-/- reexpressing RIPK3 K51A; 6.25 µM, added: zVAD: 80.9% and 86.8% and 79.8% and 81%

A few entries again (block 2):
CNc1ccc2oc(C[C@H]3O[C@@]4(CC[C@H]3C)O[C@H]([C@H](C)C(=O)c3ccc[nH]3)[C@H](C)C[C@H]4C)nc2c1C(=O)O: -33%
